{"data": "Measured values gathered from unrelated publications", "note": "Compare with care: the assays were run in different laboratories. Values joined by “and” are separate records of one study, mostly repeats; a detail may differ. Numbers after ± are the reported error."}
{"Structure (SMILES)": "CCCCn1cc(C(=O)O)c(=O)c2cc(F)c3c(nnn3-c3ccccc3Cl)c21", "cell line": "SW-620", "test": "cell growth or viability, SRB", "endpoint": "IC50", "result": "120 µM"}
{"Structure (SMILES)": "COc1c(OC(=O)N(C)c2cccc(C)c2)cc2oc3cc4c(c(O)c3c(=O)c2c1CC=C(C)C)C=CC(C)(C)O4", "cell line": "PC-12", "test": "cell proliferation, MTT", "conditions": "10 µM, 24 h", "endpoint": "inhibition", "result": "0%"}
{"Structure (SMILES)": "CC(C)c1ccc(C[C@H](C)C(=O)N[C@@H]2O[C@H](CO)[C@@H](O)[C@H](O)[C@H]2O)cc1", "cell line": "HEL fibroblasts", "test": "cell morphology", "conditions": "3 days", "endpoint": "minimal cytotoxic concentration", "result": "> 100 µM"}
{"Structure (SMILES)": "CC(=O)N[C@@H](CC(=O)O)C(=O)N[C@@H](CCC(=O)O)C(=O)N[C@H](C(=O)N[C@@H](CC(=O)O)C(=O)NCC(=O)NCC(=O)NCC(=O)NCCNC(=O)OCC1c2ccccc2-c2ccccc21)C(C)C", "cell line": "HepG2", "conditions": "200 µM, 2 h, 37 °C, 10% FBS", "endpoint": "cellular uptake", "result": "0.4 fmol/cell"}
{"Structure (SMILES)": "CC(=O)Oc1ccc(Cn2cc(C)c(=O)[nH]c2=O)cc1C1OC(c2cccc(Cl)c2)=NN1C(C)=O (centres unmarked)", "cell line": "HEL fibroblasts", "test": "cell morphology alteration", "endpoint": "minimum cytotoxic concentration", "result": "100 µM"}
{"Structure (SMILES)": "CC(=O)OC[C@H]1O[C@@H](NC(=O)NC(=O)/C=C/c2ccc(C(C)C)cc2)[C@H](OC(C)=O)[C@@H](OC(C)=O)[C@@H]1OC(C)=O", "cell line": "HEL fibroblasts", "test": "cell morphology", "conditions": "3 days", "endpoint": "minimal cytotoxic concentration", "result": "> 100 µM"}
{"Structure (SMILES)": "c1cncc(Nc2c3c(nc4ccccc24)CCCC3)c1", "cell line": "HepG2", "test": "MTT", "conditions": "50 µM, 24 h, 10% FBS", "endpoint": "inhibition", "result": "27.5 ± 1.06%"}
{"Structure (SMILES)": "Cc1cc(O)c2c(C(=O)[O-])[n+]3n(c2c1)CCCC3", "cell line": "HepG2", "test": "cell growth or viability, CCK-8", "conditions": "20 µM, 24 h", "endpoint": "viability", "result": "92.3%"}
{"Structure (SMILES)": "CC=C(C)C(=O)OC1C2COC(=O)CCC(=O)CCCCCCC(CCCCC)OC3OC(C)C(OC(C)=O)C(O)C3OC(O2)C(O)C1OC(=O)C(C)=CC (centres unmarked)", "cell line": "MDA-MB-231", "test": "cytotoxicity", "endpoint": "IC50", "result": "4.5 µM"}
{"Structure (SMILES)": "COc1ccc2cc(Nc3c4c(nc5ccccc35)CCCC4)ccc2c1", "cell line": "HepG2", "test": "MTT", "conditions": "50 µM, 24 h, 10% FBS", "endpoint": "inhibition", "result": "84.2 ± 2.27%"}
{"Structure (SMILES)": "Oc1ccccc1/C=C/c1ccc2ccccc2n1", "cell line": "U-937", "conditions": "concentration not given, 72 h", "how to read": "reference: compound over benznidazole", "endpoint": "cytotoxicity ratio", "result": 22.5}
{"Structure (SMILES)": "CC(=O)Oc1ccc(Cn2ccc(=O)[nH]c2=O)cc1C1OC(c2ccc(Cl)cc2)=NN1C(C)=O (centres unmarked)", "cell line": "HEL fibroblasts", "test": "cell morphology, microscopy", "endpoint": "minimum cytotoxic concentration", "result": "100 µM"}
{"Structure (SMILES)": "CC(C)c1ccc2c(c1)CC[C@H]1[C@](C)(C(=O)OCC#CCN3CCOCC3)CCC[C@]21C", "cell line": "BHK-21-hACE2", "conditions": "20.0 µM, 48 (unit not given)", "endpoint": "viability", "result": "108%"}
{"Structure (SMILES)": "CCCCn1cc(C(=O)O)c(=O)c2cc(F)c(Nc3cccc(Cl)c3)c(N)c21", "cell line": "SW-620", "test": "cell growth or viability, SRB", "endpoint": "IC50", "result": "< 10 µM and 9.19 µM and 9.2 µM"}
{"Structure (SMILES)": "CC[C@H](C)[C@@H]([C@@H](CC(=O)N1CCC[C@H]1[C@H](OC)[C@@H](C)C(=O)N[C@@H](Cc1ccccc1)C(=O)O)OC)N(C)C(=O)[C@@H](NC(=O)[C@@H](NC)C(C)C)C(C)C", "cell line": "MDA-MB-231", "test": "cytotoxicity", "endpoint": "EC50", "result": "0.17 ± 0.03 µM"}
{"Structure (SMILES)": "N=C(N)NCCC[C@@H]1NC(=O)[C@H](Cc2csc3ccccc23)NC(=O)[C@@H](Cc2ccccc2)NC(=O)[C@H](Cc2ccccc2)NC(=O)[C@H](CCC(=O)NCCOCCOCC(=O)N[C@@H](CCCCNC(=O)c2ccc3c(c2)C(=O)OC32c3ccc4cc(O)ccc4c3Oc3c2ccc2cc(O)ccc32)C(N)=O)NC(=O)[C@@H](CCCNC(=N)N)NC(=O)[C@H](CCCNC(=N)N)NC(=O)[C@@H](CCCNC(=N)N)NC1=O", "cell line": "HeLa", "test": "flow cytometry", "conditions": "2.0 µM, 2 h, 1% FBS", "how to read": "reference: CPP12", "endpoint": "cellular uptake", "result": "84 ± 10%"}
{"Structure (SMILES)": "CC(C)[C@@H]1NC(=O)[C@H](Cc2ccccc2)NC(=O)[C@@H]2NC(=O)[C@H](Cc3ccccc3)NC(=O)[C@@H]3CCCN3C(=O)CNC(=O)[C@H](Cc3ccccc3)NC(=O)[C@@H]3CNCCCC[C@@H](C(=O)O)NC(=O)[C@@H]4NC(=O)[C@H](CC(N)=O)NC(=O)CNC(=O)[C@H]([C@@H](O)C(=O)O)NC(=O)[C@H](CSC[C@@H](NC(=O)[C@H](CCC(N)=O)NC(=O)[C@H](CCCNC(=N)N)NC(=O)[C@@H](N)CS[C@H]4C)C(=O)N[C@@H](CS[C@H]2C)C(=O)N3)NC1=O", "cell line": "CEM 1A2 tat/rev++", "test": "MTT", "endpoint": "cytotoxic concentration", "result": "~200 nM"}
{"Structure (SMILES)": "CC(=O)Oc1ccc(Cn2ccc(=O)[nH]c2=O)cc1C1OC(c2cccc(Cl)c2)=NN1C(C)=O (centres unmarked)", "cell line": "HEL fibroblasts", "test": "cell morphology alteration", "endpoint": "minimum cytotoxic concentration", "result": "100 µM"}
{"Structure (SMILES)": "O=C1C(O)=C(CNC2CCCC2)C(=O)c2ccccc21", "cell line": "BGM (monkey kidney)", "test": "MTT", "system": "10% FCS", "conditions": "24 h", "endpoint": "median lethal concentration", "result": "≥ 3690 µM"}
{"Structure (SMILES)": "COc1ccc(Nc2c3c(nc4cc(C)ccc24)CCCC3)nc1", "cell line": "HepG2", "test": "MTT", "conditions": "50 µM, 24 h, 10% FBS", "endpoint": "inhibition", "result": "-11.4 ± 0.57%"}
{"Structure (SMILES)": "CC=C(C)C(=O)OC1C(O)C2OC(COC(=O)CCCCCCCCCC(CCCCC)OC3OC(C)C(OC(C)=O)C(O)C3O2)C1OC(=O)C=Cc1ccccc1 (centres unmarked)", "cell line": "MCF-10A", "test": "cytotoxicity", "endpoint": "IC50", "result": "0.0307 µM"}
{"Structure (SMILES)": "CCCCc1ccc(N(C)C(=O)Oc2cc3oc4cc5c(c(O)c4c(=O)c3c(CC=C(C)C)c2OC)C=CC(C)(C)O5)cc1", "cell line": "PC-12", "test": "cell proliferation, MTT", "conditions": "10 µM, 24 h", "endpoint": "inhibition", "result": "5.2%"}
{"Structure (SMILES)": "CSCC[C@H](N)C(=O)N[C@@H](CCC(=O)O)C(=O)N[C@H](C(=O)NCC(=O)N[C@@H](Cc1c[nH]c2ccccc12)C(=O)N[C@@H](Cc1ccc(O)cc1)C(=O)N[C@@H](CCCNC(N)=O)C(=O)N[C@@H](CO)C(=O)N1CCC[C@H]1C(=O)N[C@@H](Cc1ccccc1)C(=O)N[C@@H](CO)C(=O)N[C@@H](CCCNC(N)=O)C(=O)N[C@H](C(=O)N[C@H](C(=O)N[C@@H](Cc1c[nH]cn1)C(=O)N[C@@H](CC(C)C)C(=O)N[C@@H](Cc1ccc(O)cc1)C(=O)N[C@@H](CCCNC(=N)N)C(=O)N[C@@H](CC(N)=O)C(=O)NCC(=O)N[C@@H](CCCCN)C(N)=O)C(C)C)C(C)C)C(C)C", "cell line": "mouse bone marrow-derived dendritic cells", "test": "MTT", "endpoint": "cytotoxic concentration", "result": "≤ 10000 nM"}
{"Structure (SMILES)": "C[C@@H]1NC(=O)[C@H](CCCCCC(=O)[C@@H]2CO2)NC(=O)[C@H]2CCCN2C(=O)[C@H](Cc2ccccc2)NC1=O", "cell line": "MIA PaCa-2", "test": "MTT", "conditions": "48 h", "endpoint": "LC50", "result": "0.022 µM"}
{"Structure (SMILES)": "CCCCn1cc(C(=O)O)c(=O)c2cc(F)c(Nc3ccccc3Cl)c([N+](=O)[O-])c21", "cell line": "HCT-116", "test": "cell growth or viability, SRB", "endpoint": "IC50", "result": "97.1 µM"}
{"Structure (SMILES)": "O=C(O)COc1c2c(c(OCC(=O)O)c3c1C1CC3c3cc4c(cc31)C1CC4c3ccccc31)C1CC2c2cc3c(cc21)C1CC3c2ccccc21", "cell line": "TZM-bl", "test": "CellTiter-Glo", "conditions": "2 days", "endpoint": "highest non-toxic concentration", "result": "≤ 250 µM"}
{"Structure (SMILES)": "CC(C)c1ccc(/C=C/C(=O)N[C@@H]2O[C@H](CO)[C@@H](O)[C@H](O)[C@H]2O)cc1", "cell line": "HEL fibroblasts", "test": "cell morphology", "conditions": "3 days", "endpoint": "minimal cytotoxic concentration", "result": "> 100 µM"}
{"Structure (SMILES)": "CC(C)C1=CC2=C(C=O)C[C@@H]3[C@](C)(CCC[C@@]3(C)C(=O)OCC#CCN3CCOCC3)[C@H]2CC1", "cell line": "BHK-21-hACE2", "conditions": "20.0 µM, 48 (unit not given)", "endpoint": "viability", "result": "103%"}
{"Structure (SMILES)": "CCc1nn(C)c2nc(-c3ccc(C(=O)O)cc3)nc(NCc3ccccc3)c12", "cell line": "HCT-8", "test": "MTS", "conditions": "100 µM", "endpoint": "cytotoxicity", "result": "not toxic"}
{"note": "A few entries again:"}
{"Structure (SMILES)": "CC(=O)Oc1ccc(Cn2ccc(=O)[nH]c2=O)cc1C1OC(c2cccc(Cl)c2)=NN1C(C)=O (centres unmarked)", "cell line": "HEL fibroblasts", "test": "cell morphology alteration", "endpoint": "minimum cytotoxic concentration", "result": "100 µM"}
{"Structure (SMILES)": "CCCCn1cc(C(=O)O)c(=O)c2cc(F)c3c(nnn3-c3ccccc3Cl)c21", "cell line": "SW-620", "test": "cell growth or viability, SRB", "endpoint": "IC50", "result": "120 µM"}
{"Structure (SMILES)": "CC(=O)N[C@@H](CC(=O)O)C(=O)N[C@@H](CCC(=O)O)C(=O)N[C@H](C(=O)N[C@@H](CC(=O)O)C(=O)NCC(=O)NCC(=O)NCC(=O)NCCNC(=O)OCC1c2ccccc2-c2ccccc21)C(C)C", "cell line": "HepG2", "conditions": "200 µM, 2 h, 37 °C, 10% FBS", "endpoint": "cellular uptake", "result": "0.4 fmol/cell"}
